# Results from different studies.
# Parts stem from different laboratories: compare values within a part only.
# UniProt P54753, sequence (whole entry, looked up): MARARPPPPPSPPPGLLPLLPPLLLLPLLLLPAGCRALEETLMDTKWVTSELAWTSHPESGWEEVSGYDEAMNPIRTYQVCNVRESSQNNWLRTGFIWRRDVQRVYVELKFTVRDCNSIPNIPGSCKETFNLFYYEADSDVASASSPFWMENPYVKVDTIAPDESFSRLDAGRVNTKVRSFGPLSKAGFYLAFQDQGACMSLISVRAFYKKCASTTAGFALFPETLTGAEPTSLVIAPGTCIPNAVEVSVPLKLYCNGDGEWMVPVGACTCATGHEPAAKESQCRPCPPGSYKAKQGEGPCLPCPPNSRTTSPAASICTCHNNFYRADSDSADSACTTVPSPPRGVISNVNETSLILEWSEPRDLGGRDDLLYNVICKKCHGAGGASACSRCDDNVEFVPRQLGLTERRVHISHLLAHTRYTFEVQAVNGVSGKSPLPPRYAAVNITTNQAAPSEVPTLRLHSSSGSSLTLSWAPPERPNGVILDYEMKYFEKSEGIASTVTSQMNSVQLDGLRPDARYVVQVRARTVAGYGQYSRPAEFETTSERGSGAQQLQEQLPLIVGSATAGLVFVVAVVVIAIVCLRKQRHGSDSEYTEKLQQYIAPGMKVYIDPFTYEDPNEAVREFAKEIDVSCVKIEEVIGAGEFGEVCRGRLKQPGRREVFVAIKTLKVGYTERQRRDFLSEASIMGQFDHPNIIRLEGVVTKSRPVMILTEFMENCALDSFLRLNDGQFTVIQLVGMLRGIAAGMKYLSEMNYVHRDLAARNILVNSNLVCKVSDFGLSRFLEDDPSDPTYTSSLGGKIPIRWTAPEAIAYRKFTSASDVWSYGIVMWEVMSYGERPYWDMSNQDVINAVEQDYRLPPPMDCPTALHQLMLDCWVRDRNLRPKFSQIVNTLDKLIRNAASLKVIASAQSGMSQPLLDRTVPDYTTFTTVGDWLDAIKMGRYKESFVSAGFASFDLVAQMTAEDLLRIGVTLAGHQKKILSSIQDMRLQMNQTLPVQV
# UniProt P42336, sequence (whole entry, unmodified, looked up): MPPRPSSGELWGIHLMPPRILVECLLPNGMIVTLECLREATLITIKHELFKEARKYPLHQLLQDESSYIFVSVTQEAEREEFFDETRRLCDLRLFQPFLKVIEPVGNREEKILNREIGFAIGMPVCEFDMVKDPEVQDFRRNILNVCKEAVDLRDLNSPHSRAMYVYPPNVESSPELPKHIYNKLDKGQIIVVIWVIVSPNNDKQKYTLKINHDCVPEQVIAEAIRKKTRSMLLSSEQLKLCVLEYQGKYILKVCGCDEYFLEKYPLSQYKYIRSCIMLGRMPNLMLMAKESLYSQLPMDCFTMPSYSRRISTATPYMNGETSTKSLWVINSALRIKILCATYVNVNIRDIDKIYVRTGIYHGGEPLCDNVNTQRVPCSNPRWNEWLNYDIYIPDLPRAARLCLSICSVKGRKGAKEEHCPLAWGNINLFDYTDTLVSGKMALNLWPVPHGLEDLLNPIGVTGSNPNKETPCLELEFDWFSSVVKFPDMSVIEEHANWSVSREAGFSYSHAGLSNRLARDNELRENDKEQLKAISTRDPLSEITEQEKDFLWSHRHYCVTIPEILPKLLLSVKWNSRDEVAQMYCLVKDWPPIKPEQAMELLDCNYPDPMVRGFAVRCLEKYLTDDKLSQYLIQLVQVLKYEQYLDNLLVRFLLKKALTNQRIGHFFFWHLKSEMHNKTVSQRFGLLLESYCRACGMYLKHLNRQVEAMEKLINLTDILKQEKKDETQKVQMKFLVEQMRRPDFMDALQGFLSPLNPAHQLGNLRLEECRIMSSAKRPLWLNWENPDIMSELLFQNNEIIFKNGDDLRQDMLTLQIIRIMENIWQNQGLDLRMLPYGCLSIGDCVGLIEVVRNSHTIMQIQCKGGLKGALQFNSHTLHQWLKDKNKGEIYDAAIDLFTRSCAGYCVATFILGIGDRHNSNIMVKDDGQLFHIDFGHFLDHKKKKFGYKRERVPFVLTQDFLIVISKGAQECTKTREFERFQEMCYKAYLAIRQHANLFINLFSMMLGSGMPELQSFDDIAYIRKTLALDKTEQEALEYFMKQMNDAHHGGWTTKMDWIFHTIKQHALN
# UniProt O75582, sequence (whole entry, looked up): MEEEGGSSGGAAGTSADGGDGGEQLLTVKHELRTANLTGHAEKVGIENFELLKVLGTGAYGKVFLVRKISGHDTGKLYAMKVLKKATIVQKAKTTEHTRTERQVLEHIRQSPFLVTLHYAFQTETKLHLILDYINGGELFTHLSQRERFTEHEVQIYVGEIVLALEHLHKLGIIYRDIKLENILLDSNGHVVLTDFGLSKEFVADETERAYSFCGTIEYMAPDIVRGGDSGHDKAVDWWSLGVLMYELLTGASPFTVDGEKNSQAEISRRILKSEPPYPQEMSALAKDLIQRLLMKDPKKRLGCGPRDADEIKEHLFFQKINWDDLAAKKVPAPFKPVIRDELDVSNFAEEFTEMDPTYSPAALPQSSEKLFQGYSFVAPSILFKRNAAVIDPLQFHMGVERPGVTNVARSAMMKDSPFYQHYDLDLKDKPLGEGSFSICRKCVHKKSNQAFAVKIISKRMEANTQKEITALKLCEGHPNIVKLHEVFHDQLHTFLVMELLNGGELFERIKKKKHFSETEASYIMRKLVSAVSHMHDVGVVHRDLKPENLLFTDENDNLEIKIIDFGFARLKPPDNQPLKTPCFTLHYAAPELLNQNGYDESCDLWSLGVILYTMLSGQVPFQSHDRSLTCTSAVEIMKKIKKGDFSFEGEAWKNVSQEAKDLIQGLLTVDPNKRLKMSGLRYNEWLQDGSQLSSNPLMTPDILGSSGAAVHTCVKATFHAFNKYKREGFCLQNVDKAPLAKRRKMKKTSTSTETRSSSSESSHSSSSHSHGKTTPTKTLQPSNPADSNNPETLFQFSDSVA
# UniProt O95835, sequence (whole entry, looked up): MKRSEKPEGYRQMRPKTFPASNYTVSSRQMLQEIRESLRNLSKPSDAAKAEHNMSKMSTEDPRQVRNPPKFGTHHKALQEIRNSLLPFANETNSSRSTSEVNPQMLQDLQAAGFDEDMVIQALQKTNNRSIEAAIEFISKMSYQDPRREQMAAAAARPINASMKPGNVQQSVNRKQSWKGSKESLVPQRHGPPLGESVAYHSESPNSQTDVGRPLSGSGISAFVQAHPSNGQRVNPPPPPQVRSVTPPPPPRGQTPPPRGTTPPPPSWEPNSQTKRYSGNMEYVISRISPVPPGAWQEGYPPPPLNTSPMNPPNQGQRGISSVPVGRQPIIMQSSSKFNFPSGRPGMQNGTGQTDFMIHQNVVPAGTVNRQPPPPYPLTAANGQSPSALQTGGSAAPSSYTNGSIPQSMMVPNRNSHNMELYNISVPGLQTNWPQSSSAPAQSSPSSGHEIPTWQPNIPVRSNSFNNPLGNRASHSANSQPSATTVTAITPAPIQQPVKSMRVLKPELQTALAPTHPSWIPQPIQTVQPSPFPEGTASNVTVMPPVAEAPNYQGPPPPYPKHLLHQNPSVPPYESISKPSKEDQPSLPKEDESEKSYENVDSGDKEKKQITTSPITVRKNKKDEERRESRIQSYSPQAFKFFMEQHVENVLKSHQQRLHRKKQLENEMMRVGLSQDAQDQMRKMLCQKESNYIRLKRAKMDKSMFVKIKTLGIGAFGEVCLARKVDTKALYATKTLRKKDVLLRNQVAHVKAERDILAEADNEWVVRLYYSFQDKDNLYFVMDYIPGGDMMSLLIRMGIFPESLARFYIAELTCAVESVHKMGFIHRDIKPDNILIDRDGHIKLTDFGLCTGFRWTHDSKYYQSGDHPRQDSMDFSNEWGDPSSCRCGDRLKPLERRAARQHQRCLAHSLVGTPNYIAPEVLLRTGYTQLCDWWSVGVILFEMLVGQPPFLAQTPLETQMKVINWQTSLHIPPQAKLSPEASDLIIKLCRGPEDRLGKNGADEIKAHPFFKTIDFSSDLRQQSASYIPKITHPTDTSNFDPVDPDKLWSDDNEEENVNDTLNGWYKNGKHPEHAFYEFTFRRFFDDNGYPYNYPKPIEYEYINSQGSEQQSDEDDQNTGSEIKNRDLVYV
# UniProt Q9HCP0, sequence (whole entry, looked up): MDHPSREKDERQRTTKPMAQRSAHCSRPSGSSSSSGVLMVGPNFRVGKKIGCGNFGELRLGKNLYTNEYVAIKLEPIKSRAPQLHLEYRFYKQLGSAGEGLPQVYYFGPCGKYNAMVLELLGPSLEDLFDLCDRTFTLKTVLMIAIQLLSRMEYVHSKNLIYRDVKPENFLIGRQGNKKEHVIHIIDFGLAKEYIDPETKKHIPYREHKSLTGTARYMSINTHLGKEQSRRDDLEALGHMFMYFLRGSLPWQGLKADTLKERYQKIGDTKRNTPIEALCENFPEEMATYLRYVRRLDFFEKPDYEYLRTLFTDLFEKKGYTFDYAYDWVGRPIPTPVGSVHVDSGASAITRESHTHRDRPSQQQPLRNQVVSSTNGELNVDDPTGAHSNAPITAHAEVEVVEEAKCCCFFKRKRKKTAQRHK
# UniProt P49840, sequence (whole entry, looked up): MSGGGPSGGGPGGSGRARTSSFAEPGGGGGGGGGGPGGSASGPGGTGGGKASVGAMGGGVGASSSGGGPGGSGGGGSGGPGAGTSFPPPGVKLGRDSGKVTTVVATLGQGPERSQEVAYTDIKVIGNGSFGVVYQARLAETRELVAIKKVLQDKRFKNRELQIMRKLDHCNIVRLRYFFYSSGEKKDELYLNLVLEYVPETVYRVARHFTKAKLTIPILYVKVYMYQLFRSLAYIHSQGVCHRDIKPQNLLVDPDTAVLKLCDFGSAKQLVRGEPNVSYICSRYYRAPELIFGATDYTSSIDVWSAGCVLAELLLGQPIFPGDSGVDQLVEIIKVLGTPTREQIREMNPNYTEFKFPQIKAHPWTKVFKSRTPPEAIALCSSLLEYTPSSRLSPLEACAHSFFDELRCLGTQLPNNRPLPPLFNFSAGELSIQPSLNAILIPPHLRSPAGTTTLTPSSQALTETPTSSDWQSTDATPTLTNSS

# Series 1
# SMILES: Cn1cnc(Cn2ccc3ccc(CNCc4[nH]c5ccccc5c4[C@H]4NC(=O)c5ccc(O)cc54)cc32)c1
# Target: GTPase KRas (KRAS, Homo sapiens, UniProt P01116, G12C)
# Effect on: target engagement
# Technique: BRET
cells,time,IC50
HEK293 cells,,700 nM
HEK293,3 h,710 nM
HEK293,4 h,730 nM
HEK293,2 h,660 nM

# Series 2
# Target: Protein kinase C iota type (PRKCI, Homo sapiens, UniProt P41743)
# Effect on: enzyme activity
# Action: inhibitor
# Concentration: 0.5 µM
# Baseline: control
# Residues (P41743 1-596): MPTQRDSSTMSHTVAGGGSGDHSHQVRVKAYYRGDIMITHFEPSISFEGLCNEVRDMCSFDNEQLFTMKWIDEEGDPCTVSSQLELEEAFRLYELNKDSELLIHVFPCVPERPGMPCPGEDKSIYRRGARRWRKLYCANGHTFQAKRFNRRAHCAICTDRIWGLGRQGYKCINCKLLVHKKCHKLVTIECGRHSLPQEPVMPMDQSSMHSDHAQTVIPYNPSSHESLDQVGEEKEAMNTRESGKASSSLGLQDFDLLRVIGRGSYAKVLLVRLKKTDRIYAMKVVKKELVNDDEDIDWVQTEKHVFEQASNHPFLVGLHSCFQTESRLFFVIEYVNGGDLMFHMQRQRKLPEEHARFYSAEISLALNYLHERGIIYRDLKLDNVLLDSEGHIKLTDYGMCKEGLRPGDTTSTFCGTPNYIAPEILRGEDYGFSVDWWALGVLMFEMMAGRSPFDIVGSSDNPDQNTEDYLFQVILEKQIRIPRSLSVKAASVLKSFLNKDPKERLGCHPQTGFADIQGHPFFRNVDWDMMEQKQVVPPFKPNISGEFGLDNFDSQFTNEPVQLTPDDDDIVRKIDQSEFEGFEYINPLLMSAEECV
SMILES,remaining activity [%]
OCC(O)CCON=C1C(c2c(O)[nH]c3ccccc23)=Nc2ccccc21 (stereo not drawn),100
Cc1ccc(NC(=O)c2ccc(CN3CCN(C)CC3)cc2)cc1Nc1nc(-c2cccnc2)cs1,93.7
COc1cc2ncnc(Nc3ccc(F)c(Cl)c3)c2cc1OCCCN1CCOCC1,96.9
Cn1c2ccccc2c2c3c(c4c5ccccc5n(CCC#N)c4c21)CNC3=O,91.6
O=C(O)c1ccc2c3c1cccc3c(=O)n1c3ccccc3nc21,94.6
Cn1sc(=O)n(Cc2ccccc2)c1=O,95.2
O=C(Nc1cccc(Nc2cc(Nc3cccc(C(F)(F)F)c3)ncn2)c1)C1CC1,98.1
CCOC(=O)c1c(C)[nH]c(/C=C2\C(=O)Nc3ccccc32)c1C,92.9
O=C(CCCc1ccc(-c2ccccc2F)cc1)Nc1ccc(O)cc1,95.5
COc1ccc(CNC(=O)Nc2ncc([N+](=O)[O-])s2)cc1,94.4
COc1cc2ncnc(Nc3ccc(Oc4ccccc4)cc3)c2cc1OC,108
O=c1c2ccccc2[nH]c(=S)n1CCN1CCC(=C(c2ccc(F)cc2)c2ccc(F)cc2)CC1,96.3
Nc1ncnc2n[nH]c(Nc3ccc(F)cc3)c12,91.3
CC(C)[C@H](CO)Nc1nc(Nc2cc(N)cc(Cl)c2)c2ncn(C(C)C)c2n1,89.6
O=C1NC(=O)C(c2cn(CCCn3ccnc3)c3ccccc23)=C1Nc1ccccc1,90.7

# Series 3
# Structure (SMILES): NS(=O)(=O)c1cc(NC(=O)C2(c3ccccc3Cl)CC2)ccc1Oc1cccc(Cl)c1
# Concentration: 1 µM
target,effect on,technique,remaining binding [%]
"Tyrosine-protein kinase ABL1, phosphorylated (ABL1, Homo sapiens, UniProt P00519, F317I)",binding,,90
"Ribosomal protein S6 kinase alpha-5, C-terminal kinase domain (RPS6KA5, Homo sapiens, UniProt O75582)",cell-free assay,competition with immobilised ligand,90
"GSK3A (Homo sapiens, UniProt P49840)",cell-free assay,competition with immobilised ligand,90
"EPHB3 (Homo sapiens, UniProt P54753)",cell-free assay,competition with immobilised ligand,62
"CDK11B (Homo sapiens, UniProt P21127)",cell-free assay,competition with immobilised ligand,83
"SYK (Homo sapiens, UniProt P43405)",cell-free assay,competition with immobilised ligand,70
"CSF1R (Homo sapiens, UniProt P07333)",cell-free assay,competition with immobilised ligand,85
"LATS1 (Homo sapiens, UniProt O95835)",cell-free assay,competition with immobilised ligand,69
"ALK (Homo sapiens, UniProt Q9UM73)",cell-free assay,competition with immobilised ligand,85
"CSNK1G1 (Homo sapiens, UniProt Q9HCP0)",cell-free assay,competition with immobilised ligand,90
"CDK4 (Homo sapiens, UniProt P11802)",cell-free assay,competition with immobilised ligand,100
"PRKACB (Homo sapiens, UniProt P22694)",cell-free assay,competition with immobilised ligand,88
"PIK3CA (Homo sapiens, UniProt P42336, E545K)",cell-free assay,competition with immobilised ligand,96

# Mixed results
SMILES,species,dose,notes,endpoint,value
CC(C)n1cnc(-c2ccc(F)cc2)c1-c1ncc(C(=O)Nc2ccc(N3CCN(C)CC3)cc2)[nH]1,IPF patients,30 mg once daily,adverse event,cardiac failure incidence,0%
